Values quoted from earlier work as cited in several papers.
Lines come from different studies, so protocols differ. ± marks the error that the study gave. In brackets after ≈: the same amount, converted by molar mass.

Substance	assay	test system	conditions	scale	quantity	value
Cc1c(N(C)CS(=O)(=O)O)c(=O)n(-c2ccccc2)n1C		plasma	concentration not given		Cmax	34.5 µM
CNC(=O)c1cccc2cc(Oc3ccnc4cc(OCC5(N)CC5)c(OC)cc34)ccc12		human patients	oral, 10 mg daily, 21 days, trough		plasma concentration	0.43 µM
CS(=O)(=O)CCNCc1ccc(-c2ccc3ncnc(Nc4ccc(OCc5cccc(F)c5)c(Cl)c4)c3c2)o1		human, severe hepatic impairment	oral, 100 mg	relative to: healthy controls	AUC increase	~85%
C=Cc1ccccc1		exposed polymer industry workers, plasma	concentration not given		plasma concentration	≤ 22 µM
C[C@H]1c2cccc(O)c2C(=O)C2=C(O)[C@]3(O)C(=O)C(C(N)=O)=C(O)[C@@H](N(C)C)[C@@H]3[C@@H](O)[C@@H]21		water	hydrate		aqueous solubility	0.26 log mg/mL
NC(=O)c1cnccn1		plasma	concentration not given		Cmax	325 µM
Nc1nc(NC2CC2)c2ncn([C@H]3C=C[C@@H](CO)C3)c2n1		Japanese HIV-infected patients	600 mg, single dose, fasted, added: lamivudine 300 mg		median Tmax	1 h
CC[C@@H](C)[C@@H](NC(=O)[C@@H](CCCCN)NC(=O)[C@@H](CCCCN)NC(=O)[C@@H](Cc1ccccc1)NC(=O)[C@@H](CC(C)C)NC(=O)[C@@H](CCCCN)NC(=O)[C@H](N)CCCCN)C(=O)N[C@H](CC(C)C)C(=O)N[C@H](CCCCN)C(=O)N[C@H](Cc1ccc(O)cc1)C(=O)N[C@@H](CC(C)C)C(N)=O		horse erythrocytes 5 % v/v	150 µM		hemolysis	1 ± 1.2%
COc1cccc(CCc2ccccc2OC[C@H](O)CN(C)C)c1 (racemic)		human	oral, 100 mg sarpogrelate hydrochloride, single dose, geometric mean		AUC	0.0862 µg·h/mL
O=C1c2cccc3c2[C@H](CCC3)CN1[C@@H]1CN2CCC1CC2		cancer patients, plasma	oral, dose not given, netupitant-palonosetron fixed combination, added: etoposide 35-100 mg/m^2 IV		AUC(0-inf)	0.0493 µg·h/mL
Cc1nc2cccc(OCC(C)(C)C(=O)NC(C)C)c2c(N)c1C(=O)O.Cc1nc2cccc(OCC(C)(C)C(=O)NC(C)C)c2c(N)c1C(=O)O.O.O.O=S(=O)(O)O		rat, male, plasma	oral gavage, 30 mg/kg, molecular weight corrected	relative to: parent drug	AUC(0-t)	136%
Cc1c(N(C)CS(=O)(=O)O)c(=O)n(-c2ccccc2)n1C	refers to: CYP3A4	human patients treated vs untreated, liver microsomes	dose not given	relative to: untreated patients	protein level and activity	increased
CCn1c(=O)c2c(nc(/C=C/c3ccc(OC)c(OC)c3)n2C)n(CC)c1=O		urine	concentration not given		unchanged drug in urine	not detected
C#Cc1cccc(Nc2ncnc3cc(OCCOC)c(OCCOC)cc23)c1		human	oral, 150 mg once daily, day 28, 24 h		AUC(0-t)	43.8 ± 22.6 µg·h/mL
CNC(=C[N+](=O)[O-])NCCSCc1ccc(CN(C)C)o1		plasma	concentration not given		Cmax	3.99 µM
C#Cc1cccc(Nc2ncnc3cc(OCCOC)c(OCCOC)cc23)c1		children	120 mg/m^2/day, mean of two days		volume of distribution	74.6 L/m²
O=C(O)CNC(=O)c1ccccc1[131I]		normal rat, lung	60 min, added: co-injected 99mTc-1		percent injected dose	0.1 ± 0.1 %ID
O=S(=O)(O)O.c1csc(CNc2cc[nH]n2)c1.c1csc(CNc2cc[nH]n2)c1		Hsd:ICR (CD-1) mice, both sexes, liver	oral gavage, males 125, 250, 500 mg/kg/day, 3 consecutive days, females 250, 500, 1000 mg/kg/day		comet assay result	negative
CC(=O)C[C@@H](c1ccccc1)c1c(O)c2ccccc2oc1=O	refers to: 7-hydroxy metabolite	human	10 mg, added: simeprevir 150 mg	relative to: with over without simeprevir	parent to metabolite ratio	0.98
CNC(=O)c1cc(Oc2ccc(NC(=O)Nc3ccc(Cl)c(C(F)(F)F)c3)cc2)ccn1		patients	dose not given, all grades		patients with neutropenia	18%
CC[C@H](C)[C@H](NC(=O)[C@@H](NC(=O)[C@@H](NC(=O)CNC(=O)CNC(=O)[C@@H](NC(=O)[C@H](CCSC)NC(=O)[C@@H](N)CC(C)C)C(C)C)C(C)C)C(C)C)C(=O)N[C@@H](C)C(=O)O	filtration	sodium phosphate buffer	pH 7.4		solubility	132 ± 29 µM (≈ 113 µg/mL)
NC(=O)N1c2ccccc2C[C@H](O)c2ccccc21		mouse, latrunculin A seizures	po, 100 mg/kg of eslicarbazepine acetate, 60 min		brain concentration	36.4 nmol/g
C[C@@H]1CCO[C@H]2Cn3cc(C(=O)NCc4ccc(F)cc4F)c(=O)c(O)c3C(=O)N12		healthy, mostly White or Black	50 mg, single dose, fasted, added: abacavir 600 mg, lamivudine 300 mg		AUC(0-inf)	47.1 µg·h/mL
liraglutide		human, moderate hepatic impairment, plasma	100 pM		unbound fraction	0.68%
CO[C@H]1C[C@@H]2CC[C@@H](C)[C@@](O)(O2)C(=O)C(=O)N2CCCC[C@H]2C(=O)O[C@H]([C@H](C)C[C@@H]2CC[C@@H](OC(=O)C(C)(CO)CO)[C@H](OC)C2)CC(=O)[C@H](C)/C=C(\C)[C@@H](O)[C@@H](OC)C(=O)[C@H](C)C[C@H](C)/C=C/C=C/C=C/1C		human	intravenous, 25 mg once weekly, day 7 or 28		AUC(0-t)	1.58 ± 0.27 µg·h/mL
CN1Cc2c(Cl)cc(Cl)cc2[C@H](c2cccc(S(=O)(=O)NCCOCCOCCNC(=O)NCCCCNC(=O)NCCOCCOCCNS(=O)(=O)c3cccc([C@@H]4CN(C)Cc5c(Cl)cc(Cl)cc54)c3)c2)C1		human	oral, 180 mg single or 15 to 90 mg twice daily, 7 days		serum concentration	< 0.5 ng/mL

Substance	assay	test system	conditions	scale	quantity	value
CCN(CC)CCNC(=O)c1c(C)[nH]c(/C=C2\C(=O)Nc3ccc(F)cc32)c1C		patients	50 mg daily, 24 h post-dose day 3, maximum time-matched		placebo-adjusted QTcF prolongation	9.6 ms
O=C(N/N=C/c1c(O)ccc2ccccc12)c1cc(-c2ccc3ccccc3c2)n[nH]1		BALB/c mouse	intraperitoneal, 50 mg/kg, 1 h		plasma concentration	5.9 ± 3.3 µM
C=C[C@@H]1C[C@]1(NC(=O)[C@@H]1C[C@@H](Oc2nccc3cc(OC)ccc23)CN1C(=O)[C@@H](NC(=O)OC(C)(C)C)C(C)(C)C)C(=O)NS(=O)(=O)C1CC1		rabbit, heart	dose not given, 60 min after infusion		tissue concentration	0.25 µM
CCS(=O)(=O)N1CC(CC#N)(n2cc(-c3ncnc4[nH]ccc34)cn2)C1		rats	non-GLP toxicity		dose elevating aPTT	≥ 30 mg/kg/day
CC(=O)Nc1ccc(O)cc1		plasma	concentration not given		Cmax	130 µM
OC(Cn1cncn1)(Cn1cncn1)c1ccc(F)cc1F		water	hydrate form		aqueous solubility	3.56 mg/mL (≈ 11.6 mM)
O=C(CCCCCCC(=O)Nc1ccccc1)NO		human	200 mg, literature mean		half-life	1.2 h
Cc1ccccc1-c1cc(N2CCN(C)CC2)ncc1N(C)C(=O)C(C)(C)c1cc(C(F)(F)F)cc(C(F)(F)F)c1		healthy volunteers	oral, 450 mg single dose, mean, added: palonosetron 0.75 mg		Tmax	5.61 h
Cc1c(Cl)c(C)[n+]([O-])c(Cl)c1-c1noc(-c2cc(O)c(O)c([N+](=O)[O-])c2)n1		Japanese human	25 mg		AUC(0-t)	2.01 µg·h/mL
CC[C@H](C)CCCCC(=O)N[C@@H](CCN)C(=O)N[C@H](C(=O)N[C@@H](CCN)C(=O)N[C@H]1CCNC(=O)[C@H]([C@@H](C)O)NC(=O)[C@H](CCN)NC(=O)[C@H](CCN)NC(=O)[C@H](CC(C)C)NC(=O)[C@@H](Cc2ccccc2)NC(=O)[C@H](CCN)NC1=O)[C@@H](C)O	population PK model	critically ill patients	intravenous, typical value		total clearance	2.37 L/h
CNCCC(Oc1ccc(C(F)(F)F)cc1)c1ccccc1 (stereo not drawn)		juvenile Chinook salmon, whole body wet weight	concentration not given, field-collected		maximum whole-body concentration	4.9 ng/g
CC(C)(C)c1ccc(C(O)CCCN2CCC(C(O)(c3ccccc3)c3ccccc3)CC2)cc1 (stereo not drawn)		rat	added: cyclosporin A		log brain permeability-surface product	-1.39 mL/g/s
CNC(=O)c1cc(Oc2ccc(NC(=O)Nc3ccc(Cl)c(C(F)(F)F)c3)cc2)ccn1		plasma	concentration not given		Cmax	5.6 µM
CN(C)C(=O)c1cc2cnc(Nc3ccc(N4CCNCC4)cn3)nc2n1C1CCCC1		recurrent brain tumour patients, MRI-enhancing tumour	900 mg/day, 5 days		unbound concentration	2.32 ± 1.79 nmol/g
C[C@H](N[C@@H](CCc1ccccc1)C(=O)O)C(=O)N1CCC[C@H]1C(=O)O		n-octanol/water	pH 6.5		logD	-1
CCCS(=O)(=O)Nc1ccc(F)c(C(=O)c2c[nH]c3ncc(-c4ccc(Cl)cc4)cc23)c1F		human patients, serum	dose not given, up to 48 h, radiolabelled dose		parent drug share of radioactivity	95%
COc1cc(N2CCC(N3CCN(C)CC3)CC2)ccc1Nc1ncc(Cl)c(Nc2ccccc2P(C)(C)=O)n1		healthy human	oral, 180 mg, added: high-fat meal	relative to: fasted	AUC(0-inf)	no effect
Cc1ccc(Nc2c(F)cccc2Cl)c(CC(=O)O)c1		plasma	concentration not given		Cmax	22.5 µM
CC[C@H](C)[C@H](NC(=O)[C@H](C)NC(=O)CNC(=O)[C@@H](N)CCCCN)C(=O)N[C@H](C(=O)NCC(=O)N[C@@H](CC(C)C)C(=O)N[C@@H](CCSC)C(=O)N[C@H](C(=O)NCC(=O)NCC(=O)N[C@H](C(=O)N[C@H](C(=O)N[C@H](C(=O)N[C@@H](C)C(=O)O)[C@@H](C)CC)C(C)C)C(C)C)C(C)C)[C@@H](C)CC	filtration	sodium phosphate buffer	pH 7.4		solubility	~1 µM
O=c1n(CCCN2CCN(c3cccc(Cl)c3)CC2)nc2ccccn12		healthy humans	oral, 50 mg (HCl salt), added: ritonavir 200 mg, 4 doses		apparent oral clearance	75 ± 12 mL/min
O=c1c2nc(Br)n([C@@H]3O[C@@H]4COP(=O)(O)O[C@H]4[C@H]3O)c2nc2[nH]c(-c3ccccc3)cn12		methanol/water			log Kw	2.83
COc1cccc2c1C(=O)c1c(O)c3c(c(O)c1C2=O)C[C@@](O)(C(=O)CO)C[C@@H]3O[C@H]1C[C@H](N)[C@H](O)[C@H](C)O1		tumour-bearing mice	0.5-8 h	relative to: tumour over lung, heart or liver	tumour-to-organ uptake ratio	5 to 10%
Nc1nc2ncc(CNc3ccc(C(=O)N[C@@H](CCC(=O)O)C(=O)O)cc3)nc2c(=O)[nH]1		plasma	concentration not given		Cmax	3.4 µM
CCN(CCO)CCCC(C)Nc1ccnc2cc(Cl)ccc12 (stereo not drawn)		rheumatoid arthritis patients, whole blood	400 mg daily		average blood concentration	2.8 µM
O=C1CC(c2ccc(O)cc2)Oc2cc(O)cc(O)c21 (stereo not drawn)		Wistar rat, female	oral gavage, 50 mg/kg/day, 4 weeks		serum AST, ALT, LDH, CK, protein, albumin	no effect

For quick reference, copied from above:
Substance	assay	test system	conditions	scale	quantity	value
CN1Cc2c(Cl)cc(Cl)cc2[C@H](c2cccc(S(=O)(=O)NCCOCCOCCNC(=O)NCCCCNC(=O)NCCOCCOCCNS(=O)(=O)c3cccc([C@@H]4CN(C)Cc5c(Cl)cc(Cl)cc54)c3)c2)C1		human	oral, 180 mg single or 15 to 90 mg twice daily, 7 days		serum concentration	< 0.5 ng/mL
CN(C)C(=O)c1cc2cnc(Nc3ccc(N4CCNCC4)cn3)nc2n1C1CCCC1		recurrent brain tumour patients, MRI-enhancing tumour	900 mg/day, 5 days		unbound concentration	2.32 ± 1.79 nmol/g
CC[C@H](C)CCCCC(=O)N[C@@H](CCN)C(=O)N[C@H](C(=O)N[C@@H](CCN)C(=O)N[C@H]1CCNC(=O)[C@H]([C@@H](C)O)NC(=O)[C@H](CCN)NC(=O)[C@H](CCN)NC(=O)[C@H](CC(C)C)NC(=O)[C@@H](Cc2ccccc2)NC(=O)[C@H](CCN)NC1=O)[C@@H](C)O	population PK model	critically ill patients	intravenous, typical value		total clearance	2.37 L/h
COc1cccc2c1C(=O)c1c(O)c3c(c(O)c1C2=O)C[C@@](O)(C(=O)CO)C[C@@H]3O[C@H]1C[C@H](N)[C@H](O)[C@H](C)O1		tumour-bearing mice	0.5-8 h	relative to: tumour over lung, heart or liver	tumour-to-organ uptake ratio	5 to 10%
C[C@H]1c2cccc(O)c2C(=O)C2=C(O)[C@]3(O)C(=O)C(C(N)=O)=C(O)[C@@H](N(C)C)[C@@H]3[C@@H](O)[C@@H]21		water	hydrate		aqueous solubility	0.26 log mg/mL
